Assay results from different studies.
Each numbered part is a random draw from the data of one study; scales do not carry over between parts. Several values in a cell are separate wells, animals, samples, runs or records.

Set 1
Target: Centromere-binding protein 1, full length, His-tagged (CBF1, Saccharomyces cerevisiae, UniProt P17106, residues 1-351)
Sequence of UniProt P17106 (whole entry, looked up): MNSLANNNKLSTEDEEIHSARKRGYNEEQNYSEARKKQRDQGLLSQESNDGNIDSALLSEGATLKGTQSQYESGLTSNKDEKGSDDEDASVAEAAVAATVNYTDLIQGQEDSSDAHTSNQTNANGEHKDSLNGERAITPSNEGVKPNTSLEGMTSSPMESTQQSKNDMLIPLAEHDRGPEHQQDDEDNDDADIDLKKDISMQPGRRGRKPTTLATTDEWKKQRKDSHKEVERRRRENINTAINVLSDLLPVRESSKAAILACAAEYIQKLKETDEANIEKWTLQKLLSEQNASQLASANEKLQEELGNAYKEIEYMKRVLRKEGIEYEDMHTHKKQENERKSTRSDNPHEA
Technique: competition protein-binding microarray
Form: double-stranded DNA, one strand shown
Sample: in vitro
Tested at: 2 µM
Notes: whole 60-bp probe, lowest competitor level
Together with: Pho4 competitor, 0.05 µM
Direction: higher = stronger binding
Shared flanks, not repeated: … GTCTTGATTCGCTTGACGCTGCTG
Sequence | fluorescence intensity
CATACCCAACCTTGCAGAGTGGGTGAAGATATTTGT | 58.3 a.u.
AAGCGAGGCGCAGATCTCGTGGTGAGTGATATAGTG | 138 a.u.
AGTTACGGTTGCCATCACGTGTCGGTAGGATAAAGT | 3020 a.u.
TCGATATATAGAAAGCACGATTGCCCAGGAGTTATG | 76 a.u.
CGCCCTTCCTTACGGTAGATGATGACACACTAAACG | 60.8 a.u.
TTGGAGCAGAACAAACACCTGATGACGCGGAAGACG | 162 a.u.
CGGGGTTAAGTTTGTGCCGTGGGTGGCTTGCAGCAG | 54.3 a.u.
ATCGCTTCCTCCTCCTACATGACAGAGCTGGTACGC | 74 a.u.

Set 2
Cell line: HEK-293T
Organism: VSV pseudotyped with SARS-CoV-2 spike
Tested at: 10 µM
Time: 16 h
Compound | pseudovirus infection [%]
CN1CCN(C2=Nc3cc(Cl)ccc3Nc3ccccc32)CC1 | 52.3
CCN[C@H]1C[C@H](C)S(=O)(=O)c2sc(S(N)(=O)=O)cc21 | 81.2
Cc1ccccc1C(OCCN(C)C)c1ccccc1 (stereo not shown) | 40.4
Nc1ccc(S(N)(=O)=O)cc1 | 96.4

Set 3
Target: Replicase polyprotein 1ab, nsp13 helicase (rep, Severe acute respiratory syndrome coronavirus 2, UniProt P0DTD1)
Action: inhibitor
Tested at: 20 µM
Compound | inhibition [%]
CC(C)=CCC/C(C)=C/CC/C(C)=C/CC/C(C)=C/CC1=C(C)C(=O)c2ccccc2C1=O | 6.53
CC(C)[C@@H](C)/C=C/[C@@H](C)[C@H]1CC[C@H]2C3=CC=C4C[C@@H](O)CC[C@]4(C)[C@H]3CC[C@]12C | 0.52
O=C1CC2(CCCC2)CC(=O)N1CCCCNCC1COc2ccccc2O1 (stereo not shown) | 3.89
O=C(Oc1ccc([N+](=O)[O-])cc1)N1CCC(C(O)(c2ccc3c(c2)OCO3)c2ccc3c(c2)OCO3)CC1 | 5.06
O=C1c2ccccc2-n2c1nc1ccccc1c2=O | 2.25
CC(C)Oc1ccc(-c2nc(-c3cccc4c3CC[C@@H]4NCCO)no2)cc1C#N | -0.91
N=C(N)c1ccc(OCCCCCOc2ccc(C(=N)N)cc2)cc1 | -2.02
CC(C)(Oc1ccc(C2CC2(Cl)Cl)cc1)C(=O)O (stereo not shown) | -2.67
O=C(O)[C@H]1CN(C/C=C/P(=O)(O)O)CCN1 | 0.65
COc1ncc(-c2ccc3c(Nc4cc(Oc5cc(F)cc(F)c5)cc(C(=O)O)c4)c(S(=O)(=O)NC4CC4)cnc3c2)c(OC)n1 | 11.8
Nc1nccc(-c2c(-c3ccc(F)cc3)ncn2C2CCCCC2)n1 | 8.25
CC(=O)N[C@@H](CC(C)C)C(=O)O | 3.02
COc1cc2ncnc(Oc3cccc(NC(=O)Nc4cc(C(C)(C)C(F)(F)F)on4)c3)c2cc1OC | 3.49
C#C[C@]1(O)CC[C@H]2[C@@H]3CCc4cc(OC)ccc4[C@H]3CC[C@@]21C | 7.64
COc1ccc(C(=O)c2ccccc2O)c(O)c1 | 4.21
COc1cc(C(=O)NCC2(N(C)C)CCCC2)cc(OC)c1OCc1ccccc1 | -1.36
CCCCCCCCCCC/C(=N\O)c1cc(C)ccc1O | 0.73
Cc1ccc(Cl)cc1N(CC(=O)Nc1c(F)cccc1F)S(C)(=O)=O | 3.1
CO[C@H]1C[C@H](O[C@@H]2/C(C)=C/C[C@@H]3C[C@@H](C[C@]4(CC[C@H](C)[C@@H](C5CCCCC5)O4)O3)OC(=O)[C@@H]3C=C(C)/C(=N/O)[C@H]4OC/C(=C\C=C\[C@@H]2C)[C@]43O)O[C@@H](C)[C@@H]1O | -4.7
O=c1[nH]c(=O)n([C@H]2C[C@H](O)[C@@H](CO)O2)cc1Br | 3.94
C/C=C1\[C@H]2C=C(C)C[C@]1(N)c1ccc(=O)[nH]c1C2 | 4.16

Set 4
Target: RNA binding protein fox-1 homolog 2, RRM domain, GST-SBP tag (RBFOX2, Homo sapiens, UniProt O43251-10, residues 100-194)
Technique: RNA Bind-n-Seq
Form: RNA
Sample: in vitro
Tested at: 365 nM
Notes: natural RNA segment, single round, ends assumed
Baseline: no-protein control
Direction: higher = stronger binding
Shared flanks, not repeated: GGGAGUUCUACAGUCCGACGAUC … UGGAAUUCUCGGGUGCCAA
Construct (chain): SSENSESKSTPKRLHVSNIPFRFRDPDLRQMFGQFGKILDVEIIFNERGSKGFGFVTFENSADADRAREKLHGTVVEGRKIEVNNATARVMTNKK
Sequence | RBNS enrichment (R)
CUACUUUGAGCAGGGUCUGAAUUUUUUCAUUUAUUUUCUUUUUGCCAGCAGACAGACUUGGGUCUAUAAAGACAAGCAAGUACACUGACAGAAAUUACCAUUUAGUUUCU | 0.783
CUGUUUCUCCAGUAAAGGACUGGCUUUUGCUUGGGCAGAGGUGGUGCUGCUGGGUGUGCAGCUGCCACAGACUCCAAAGGCGUAGAAGUUUGUGCCAACACACGGAGUCA | 0.536
ACUGCUGUAAUGCUAGUAUUUCAAAGUCUGAAGCAGGAGGACUCCCAUGAGGUUGAGGUUACCCUGGCUUAUGGAGCGACAGCCUGUCUCAGAGAAACAAGAGCACAAGU | 0.471
GUAAUUUAACUCUAUAAUUGCAGUUACAGCAUUUGGUUUUUGCCAUCUAAGAUUUUCUUGGUUUUAAACAAAAAUAUUCUAUCUUUAUCUGCAGCACAGAGGGAAAUCUG | 0.323
CAGCCUGGAGGAUUUUUAGCCGAAACAGUUGCAUGUGAAGGAUUAUCAGCCAUCUUUGCAUAUCCCUUUCACAUCUACCUUCACACAGGAAAGCUGAAUGCAUUUUACCA | 1.15
UCUUCCCCAAAAUUGAUCACUCCGCCUUCUCCUGGGCUCCCGUAGCACACUAUAACAUCUGCUGGAGUGUUGCUGUUGCACCAUACUUUCUUGUACAUUUGUGUCUCCCU | 0.617
CUUGUCUUUACAAAAUAUAAUUGAUUAAGAUAUGUCAAGACCUACAUUGUCUAAGCACCGGCAAAUUAAAAUGUCGAGAAUCACUUCAGUCAAAAACCUUUAUAUUCUGU | 0.372
GUAUUAGACUAUGAGGUUGUGGUCUGGUAAGUCACUCAGCUGGCUCUGUUCAAAUGCAUUGAGAGACAUGACCUCAGAAUACCUAGUGUGAACAUUCUAAGUUGUACUGU | 0.594

Set 5
Target: RING finger protein unkempt homolog, zinc fingers 1-6, SBP tag (UNK, Homo sapiens, UniProt Q9C0B0, residues 30-357)
Sequence of UniProt Q9C0B0 (30-357, looked up): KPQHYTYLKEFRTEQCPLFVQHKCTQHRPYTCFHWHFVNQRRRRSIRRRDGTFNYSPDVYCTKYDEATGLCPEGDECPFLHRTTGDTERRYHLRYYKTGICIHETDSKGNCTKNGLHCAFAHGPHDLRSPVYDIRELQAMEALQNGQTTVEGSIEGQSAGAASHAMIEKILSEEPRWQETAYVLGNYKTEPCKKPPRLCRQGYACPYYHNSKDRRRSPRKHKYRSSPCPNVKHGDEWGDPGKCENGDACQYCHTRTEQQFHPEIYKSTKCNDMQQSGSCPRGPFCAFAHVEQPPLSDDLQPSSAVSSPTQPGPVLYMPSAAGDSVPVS
Technique: RNA Bind-n-Seq
Form: RNA
Sample: in vitro
Tested at: 100 nM
Notes: RNA with constant flanks, vertebrate orthologous sites, ends assumed
Baseline: input RNA pool
Direction: higher = stronger binding
Shared flanks, not repeated: GGGAGUUCUACAGUCCGACGAUC … CAACAGAGGAUUGAGCAUCA
Sequence | bound/input enrichment [ratio]
AUGAUUUUUAAUCUCUUCUCCCCUAUCCUGGUUUUAAAAGUCUUUUUUUUUUUCUUUUAGGCACAUGUAGUAACAUUAGCAGAAAGAUUUAAUUUGGGCAACUUUGAUUCUUAAAAGAGU | 0.352
UCUGGUGCCCCCCACUGUGAGAAAAUGGGGGAAGCUCAAUGACCCUCAGCUGUUCCAAUCUAGUAUUUUGUUUUCUUUUUUAAAAUUACUGUAUUUAUUAUGACGAUGGUGACUCCCCAG | 0.801
AGCAACCCAAGGAUUCAGGACUGGUUUUACAAAUAUCCCAAGUAGAUAUGGAACUAACAGUAGAAUUGGACAACCAAGACCAUGAUGUACUAUAAUUUAAUUUAUUUUUAUGAGGAAUAU | 0.804
AAUUGAACAAAAACGUUUCCACUGGGUUUCGCCUGUAAGAAAAAAAUGCACCCAAGCACAUAGAGCUUUUUAAUAGCACUAACCAAUGCCUUUUUAGAUGUAUUUUUGAUGUAUAUAUCU | 0.663
CUGUUGUGUGAAAUAUGUCUACCAAGAGAAGUAUCACACCAUAAACAUUGUCAAAUAAUUUAGCUACAAUCUUCUUAGAUACCAAAUUAUAUGUCAAGCAUUUAAAGUGAAUUUGAGAUG | 0.389

Set 6
Organism: SARS-CoV-2
Observed: cytopathic effect
Cell line: Vero E6
Tested at: 10 µM
Compound | inhibition
CCc1ccc(/C=C/C(=O)Nc2ccc(C(C)=O)cc2)o1 | -1.2%
CO[C@@H]1[C@H](OC(=O)NC(=O)CCl)CC[C@]2(CO2)[C@H]1[C@@]1(C)O[C@@H]1CC=C(C)C | -0.17% and -6%
CC(C)(C)OC(=O)NCCc1nnc(S(=O)(=O)Cc2ccc(Cl)cc2Cl)o1 | -4.5%

A few entries again (set 1):
Sequence | fluorescence intensity
AAGCGAGGCGCAGATCTCGTGGTGAGTGATATAGTG | 138 a.u.
AGTTACGGTTGCCATCACGTGTCGGTAGGATAAAGT | 3020 a.u.
TCGATATATAGAAAGCACGATTGCCCAGGAGTTATG | 76 a.u.
CGCCCTTCCTTACGGTAGATGATGACACACTAAACG | 60.8 a.u.
TTGGAGCAGAACAAACACCTGATGACGCGGAAGACG | 162 a.u.
CGGGGTTAAGTTTGTGCCGTGGGTGGCTTGCAGCAG | 54.3 a.u.
ATCGCTTCCTCCTCCTACATGACAGAGCTGGTACGC | 74 a.u.
